Measured values gathered from unrelated publications.
Lines come from different studies, so protocols differ. Values joined by “and” are separate records of one study, mostly repeats; a detail may differ. Numbers after ± are the reported error. Converted amounts (≈) assume the structure as drawn.

| Compound | cell line | assay | system | conditions | scale | quantity | result |
| --- | --- | --- | --- | --- | --- | --- | --- |
| COc1cnc(OC)n2nc(NS(=O)(=O)c3c(OCC(F)F)cccc3C(F)(F)F)nc12 | HEK293T | cytotoxicity, CCK-8 |  | 25 µM, 72 h |  | inhibition | 0.37 ± 0.44% |
| Nc1ncnc2c1ncn2[C@@H]1O[C@@H]2COP(=O)(O)O[C@H]3[C@@H](O)[C@H](n4cnc5c(=O)[nH]cnc54)O[C@@H]3COP(=O)(O)O[C@H]2[C@H]1O | HFF-1 | RNA sequencing, refers to: Sensory Perception |  | downregulated pathway | baseline: Zika virus alone | pathway fold enrichment | 3.05 |
| COc1ccc(CC(=O)NC(NC(=NC#N)Nc2cccc3ncccc23)C(C)(C)C)cc1OC (centres unmarked) | N2a | fluorescence signal increase, inhibitor |  | 30 µM, together with: ATP or BzATP 300 µM |  | effect on signal | inhibited |
| COc1ccc([C@H]2c3[nH]c4ccc(Cl)cc4c3CCN2C(=O)Oc2ccc(Cl)cc2)cc1 | CD19+ B cells with PBMC | cytokine secretion, refers to: sIgG |  | 0.1 µM, 144 h, BioMAP BT system |  | inhibition | 98% |
| O=C(Nc1ccc2[nH]nc(-c3ccncc3)c2c1)[C@@H]1CCN(CC(=O)N2CCN(c3ccc(-c4ncccn4)cc3)CC2)C1 | HCT116 | IncuCyte |  | concentration not given, 0 (unit not given) |  | PI-positive cells | 3.83 count and 1.42 count and 2.42 count |
| C/C=C(/C)C(=O)O[C@H]1C(C)=C2[C@H]([C@@H]1OC(=O)CCCCCCC)[C@@](C)(OC(C)=O)C[C@H](OC(=O)CCC)[C@@]1(O)[C@H]2OC(=O)[C@@]1(C)O | HEK293T | RNA-seq, refers to: SERPINH1 mRNA |  | 10 µM, 6 h | baseline: vehicle | log2 fold change | 0.185 |
| COc1c(CCC[P+](c2ccccc2)(c2ccccc2)c2ccccc2)cc2c(c1OC)OCO2.[I-] | SNB-19 | SRB |  |  |  | GI50 | -5.84 log M |
| C[C@]12CC[C@H](O)CC1=CC[C@@H]1[C@@H]2CC[C@]2(C)C(n3cnc4ccccc43)=CC[C@@H]12 | LNCaP, C4-2B and CWR22Rv1 | cell growth, MTT |  | mean of three lines |  | GI50 | 0.38 µM |
| COc1ccc2c(c1)[nH]c1c(C)nccc12 | DU-145 | bisulfite pyrosequencing, refers to: RASSF1A promoter CpG site 18 |  | 10 µM, 16 h |  | DNA methylation | 90% |
| Oc1ccc(C(c2ccc(O)cc2)(C(F)(F)F)C(F)(F)F)cc1 | HepG2 spheroids | Hoechst flow cytometry |  | 1 µM, 24 h |  | G2 phase cells | 17.9 ± 3.53% |
| C=C(C)[C@@H]1CCC(C)=C[C@H]1c1c(O)cc(CCCCC)cc1O | human sperm | modified Kremer test |  | 10 µM, 1% methylcellulose, 1 cm | baseline: vehicle | sperm penetration | 1.33 ± 0.6 fold |
| C[C@H]1[C@H](C)CC[C@]2(C(=O)O)CC[C@]3(C)C(=CC[C@@H]4[C@@]5(C)CC[C@H](O)C(C)(C)[C@@H]5CC[C@]43C)[C@H]12 | 3T3 | cell growth, MTT |  | 1.8 µg/mL, 48 h |  | cell survival | 87.4 ± 1% |
| O=C1CCP(=S)(c2ccccc2)CC1 | HaCaT | Annexin V-FITC/PI flow cytometry |  | IC50, 72 h |  | late apoptotic cells | 1.25% |
| COc1cc(N2CC[C@@]3(O)C(=O)c4cc(C)c(C)cc4N=C23)ccn1 | COS-7 | cytokinesis |  | 24 h |  | EC50 | 1 µM |
| Cc1cccc(-c2cccc(C)n2)n1.Cc1cccc(-c2cccc(C)n2)n1.F[P-](F)(F)(F)(F)F.F[P-](F)(F)(F)(F)F.[Ru+2].c1ccc2cc(-c3nc4c5cccnc5c5ncccc5c4[nH]3)ccc2c1 | SK-MEL-28 | cell viability |  | 1% O2, together with: green light 523 nm, 100 J/cm2 |  | EC50 | 56.3 ± 2.2 µM |
| CCN(CC)c1ccc(C=NNC(=O)CSc2nc3ccccc3c(=O)n2Cc2ccc(S(N)(=O)=O)cc2)c(O)c1 | SNB-19 | NCI five-dose screen |  |  |  | CC50 | > 100 µM |
| N.N.[Cl][Pt][Cl] | A3/KAW | cell proliferation, CellTiter-Glo |  | 10 µM, 72 h |  | inhibition | 100% |
| Oc1ccc(C2(c3ccc(O)cc3)c3ccccc3-c3ccccc32)cc1 | HepG2 spheroids | planimetry |  | 160 µM, 96 h | baseline: solvent control | spheroid surface area | 1.61 fold |
| CN1CCN(S(=O)(=O)c2cc([N+](=O)[O-])ccc2N(CCOS(C)(=O)=O)CCOS(C)(=O)=O)CC1 | sample G B-ALL PDX cells | cell viability | ex vivo | 48 h, together with: AKR1C3 inhibitor | baseline: with inhibitor over alone | IC50 fold change | 1 |

| Compound | cell line | assay | system | conditions | scale | quantity | result |
| --- | --- | --- | --- | --- | --- | --- | --- |
| COc1cnc2cccc(N3CCc4c(cc(Cn5ccnc5C)cc4-c4cn(C)nc4C(F)(F)F)C3=O)c2c1 | A101D | cell growth, inhibitor |  | 120 h |  | EC50 | > 30 µM |
| Oc1cc(O)cc(-c2cc3ccc(O)cc3o2)c1 | 3T3 | cell growth, MTT |  | 25 µg/mL, 48 h |  | cell survival | 51.44 ± 0.44% |
| Nc1ncc(-c2nc(N3CCOCC3)nc(N3CCOCC3)n2)c(C(F)F)n1 | FaDu |  |  | 72 h |  | GI50 | 0.288 µM |
| Cc1cc(C(C)(C)c2ccc(O)c(C)c2)ccc1O | HepG2 spheroids | Hoechst flow cytometry |  | 10 µM, 24 h |  | S phase cells | 9.44 ± 2.36% |
| Cn1cncc1C1=CN(c2ncnc3[nH]cnc23)CCS1 | MDA-MB-231/ATCC |  |  |  |  | CC50 | > 200 µM |
| Nc1ncnc2c1ncn2[C@@H]1O[C@H](COP(=O)(O)OP(=O)(O)OP(=O)(O)O)[C@@H](O)[C@H]1O | N2a | fluorescence signal increase, stimulant, live-cell confocal microscopy |  | 300 µM |  | time to maximum ΔF/F0 | ~8 min |
| CC(C)(O/N=C(\C(=O)N[C@@H]1C(=O)N2C(C(=O)[O-])=C(C[n+]3ccccc3)CS[C@H]12)c1csc(N)n1)C(=O)O | Escherichia coli DH5α expressing KPC-25 | bacterial growth |  |  |  | MIC | 64 mg/L (≈ 117 µM) |
| C[C@]12CC[C@H](O)C[C@H]1CC[C@@H]1[C@@H]2CC[C@]2(C)[C@@H](c3ccc(=O)oc3)CC[C@]12O | MCF7 | luciferase |  | 50 nM, unit not given | baseline: untreated | ERE reporter activity | 0.414 and 0.777 and 0.689 |
| CC(C)N1CCC(NC2CCN(c3cccc(-c4cc5cc(F)ccc5[nH]4)c3)CC2)CC1 | UACC-62 |  |  |  |  | GI50 | 1.81 µM |
| COc1cc([C@@H]2c3cc4c(cc3C[C@H]3COC(=O)[C@@H]32)OCO4)cc(OC)c1OC | neuroblastoma M2 (−) | western blot |  | IC50 | baseline: untreated | PARP cleavage | increased |
| O=C1N(Cc2ccccc2Cl)c2ccccc2C12NN=C(c1ccccc1)S2 (centres unmarked) | MDA-MB-468 | gene expression array, refers to: DPY30 mRNA |  | 10 µM, 12 h | baseline: untreated, down | fold change | 1.58 |
| CC(C)=CCc1c(O)cc(O)cc1-c1cc2ccc(O)c(CC=C(C)C)c2o1 | 3T3 | cell growth, MTT |  | 25 µg/mL, 48 h |  | cell survival | 61.76 ± 0.43% |
| COc1cc(CCC[P+](c2ccccc2)(c2ccccc2)c2ccccc2)c(OC)c2c1OCO2.[I-] | SK-MEL-2 | SRB |  |  |  | LC50 | -4.27 log M |
| CN1CCN(C2(CNC3CCN(c4cccc(-c5cc6cc(F)ccc6[nH]5)c4)CC3)CCC2)CC1 | Hs-578T |  |  |  |  | CC50 | > 100 µM |
| Cc1nn(-c2nc3c(F)cc(F)cc3s2)c(O)c1C(c1ccc(C(F)(F)F)cc1)c1c(C)nn(-c2nc3c(F)cc(F)cc3s2)c1O | RAW-ISG | CCK-8 |  | 1.563 µM |  | viability | 109% and 113% and 99.5% and 97.3% |
| COc1cc(C(=O)c2nc(-c3cccc4[nH]ccc34)c[nH]2)cc(OC)c1OC | PC-3/TxR | scratch wound healing |  | 5 nM, 24 h |  | wound closure reduction | ~80% |
| COc1c(C)c2c(c(O)c1C/C=C(\C)CCC(=O)O)C(=O)OC2 | skin cancer cell lines | cell proliferation |  | average over lines |  | IC50 | 0.646 µM |
| Oc1cc(Cl)ccc1Oc1ccc(Cl)cc1Cl | HepG2 | high content imaging, refers to: cell count |  | 24 h, representative mode |  | point of departure | 18.6 µM |
| N.N.[Cl][Pt][Cl] | SK-MEL-28 | cell growth, SRB |  | dark, 1% O2 hypoxia |  | TGI | 2.49 µM |

Repeated from above:
| Compound | cell line | assay | system | conditions | scale | quantity | result |
| --- | --- | --- | --- | --- | --- | --- | --- |
| O=C1CCP(=S)(c2ccccc2)CC1 | HaCaT | Annexin V-FITC/PI flow cytometry |  | IC50, 72 h |  | late apoptotic cells | 1.25% |
| COc1cc(N2CC[C@@]3(O)C(=O)c4cc(C)c(C)cc4N=C23)ccn1 | COS-7 | cytokinesis |  | 24 h |  | EC50 | 1 µM |
| Cc1cccc(-c2cccc(C)n2)n1.Cc1cccc(-c2cccc(C)n2)n1.F[P-](F)(F)(F)(F)F.F[P-](F)(F)(F)(F)F.[Ru+2].c1ccc2cc(-c3nc4c5cccnc5c5ncccc5c4[nH]3)ccc2c1 | SK-MEL-28 | cell viability |  | 1% O2, together with: green light 523 nm, 100 J/cm2 |  | EC50 | 56.3 ± 2.2 µM |
